# Experimental data of several laboratories.
# Each numbered part is a random draw from the data of one study; scales do not carry over between parts.
# Sequence of UniProt Q9UK32 (whole entry, looked up): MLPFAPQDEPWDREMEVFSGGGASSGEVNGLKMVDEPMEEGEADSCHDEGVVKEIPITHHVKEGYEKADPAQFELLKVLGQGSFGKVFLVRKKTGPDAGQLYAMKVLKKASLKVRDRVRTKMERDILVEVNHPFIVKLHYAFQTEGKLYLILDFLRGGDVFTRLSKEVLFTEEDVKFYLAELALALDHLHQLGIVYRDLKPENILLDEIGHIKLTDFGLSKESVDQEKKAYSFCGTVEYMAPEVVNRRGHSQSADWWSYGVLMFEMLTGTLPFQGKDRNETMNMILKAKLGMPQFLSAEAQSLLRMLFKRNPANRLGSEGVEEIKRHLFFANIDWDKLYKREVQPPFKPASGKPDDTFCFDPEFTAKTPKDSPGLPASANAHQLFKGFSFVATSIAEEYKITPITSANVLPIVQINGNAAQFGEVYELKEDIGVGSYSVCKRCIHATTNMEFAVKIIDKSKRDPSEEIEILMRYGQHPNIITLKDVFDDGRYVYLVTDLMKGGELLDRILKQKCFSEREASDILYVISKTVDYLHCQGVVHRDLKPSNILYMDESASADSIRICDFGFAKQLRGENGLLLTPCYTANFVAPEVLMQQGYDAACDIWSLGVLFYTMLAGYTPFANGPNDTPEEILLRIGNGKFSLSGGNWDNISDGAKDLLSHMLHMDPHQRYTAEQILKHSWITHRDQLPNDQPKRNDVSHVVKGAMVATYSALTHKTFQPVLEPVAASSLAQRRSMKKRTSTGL
# Sequence of UniProt O15146 (whole entry, looked up): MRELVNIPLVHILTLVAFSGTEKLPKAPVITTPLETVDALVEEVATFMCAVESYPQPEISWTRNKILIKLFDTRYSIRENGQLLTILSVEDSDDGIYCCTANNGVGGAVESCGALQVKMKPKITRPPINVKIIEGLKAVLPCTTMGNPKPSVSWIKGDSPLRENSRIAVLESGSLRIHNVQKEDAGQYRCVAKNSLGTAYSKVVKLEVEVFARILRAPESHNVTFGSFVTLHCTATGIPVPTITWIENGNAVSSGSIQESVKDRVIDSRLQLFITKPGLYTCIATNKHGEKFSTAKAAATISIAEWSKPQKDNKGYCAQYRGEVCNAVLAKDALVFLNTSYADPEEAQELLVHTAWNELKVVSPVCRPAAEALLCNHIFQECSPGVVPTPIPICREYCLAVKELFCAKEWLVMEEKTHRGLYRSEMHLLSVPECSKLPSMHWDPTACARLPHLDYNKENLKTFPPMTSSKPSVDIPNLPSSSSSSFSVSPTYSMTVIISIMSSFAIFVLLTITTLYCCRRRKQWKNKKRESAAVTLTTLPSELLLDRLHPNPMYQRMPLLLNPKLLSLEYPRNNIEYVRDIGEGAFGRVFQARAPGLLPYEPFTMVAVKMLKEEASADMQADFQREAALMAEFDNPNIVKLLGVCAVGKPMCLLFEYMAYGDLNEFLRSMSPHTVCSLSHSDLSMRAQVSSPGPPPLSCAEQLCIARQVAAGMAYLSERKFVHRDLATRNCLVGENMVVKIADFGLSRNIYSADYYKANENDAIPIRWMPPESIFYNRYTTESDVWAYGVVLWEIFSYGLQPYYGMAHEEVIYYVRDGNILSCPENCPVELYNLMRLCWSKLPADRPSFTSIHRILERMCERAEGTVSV
# Sequence of UniProt P48730 (whole entry, looked up): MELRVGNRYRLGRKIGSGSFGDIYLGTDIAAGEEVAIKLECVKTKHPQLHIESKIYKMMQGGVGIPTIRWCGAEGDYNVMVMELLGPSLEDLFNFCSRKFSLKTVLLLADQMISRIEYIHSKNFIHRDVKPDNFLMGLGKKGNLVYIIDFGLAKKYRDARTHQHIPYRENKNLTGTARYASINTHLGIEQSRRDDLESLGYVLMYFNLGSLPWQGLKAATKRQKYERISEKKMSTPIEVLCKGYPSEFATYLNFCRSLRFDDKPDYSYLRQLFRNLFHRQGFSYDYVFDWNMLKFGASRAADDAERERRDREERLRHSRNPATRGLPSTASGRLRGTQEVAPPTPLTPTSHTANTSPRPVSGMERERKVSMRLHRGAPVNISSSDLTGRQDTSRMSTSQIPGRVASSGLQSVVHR
# Sequence of UniProt Q8WXR4 (whole entry, looked up): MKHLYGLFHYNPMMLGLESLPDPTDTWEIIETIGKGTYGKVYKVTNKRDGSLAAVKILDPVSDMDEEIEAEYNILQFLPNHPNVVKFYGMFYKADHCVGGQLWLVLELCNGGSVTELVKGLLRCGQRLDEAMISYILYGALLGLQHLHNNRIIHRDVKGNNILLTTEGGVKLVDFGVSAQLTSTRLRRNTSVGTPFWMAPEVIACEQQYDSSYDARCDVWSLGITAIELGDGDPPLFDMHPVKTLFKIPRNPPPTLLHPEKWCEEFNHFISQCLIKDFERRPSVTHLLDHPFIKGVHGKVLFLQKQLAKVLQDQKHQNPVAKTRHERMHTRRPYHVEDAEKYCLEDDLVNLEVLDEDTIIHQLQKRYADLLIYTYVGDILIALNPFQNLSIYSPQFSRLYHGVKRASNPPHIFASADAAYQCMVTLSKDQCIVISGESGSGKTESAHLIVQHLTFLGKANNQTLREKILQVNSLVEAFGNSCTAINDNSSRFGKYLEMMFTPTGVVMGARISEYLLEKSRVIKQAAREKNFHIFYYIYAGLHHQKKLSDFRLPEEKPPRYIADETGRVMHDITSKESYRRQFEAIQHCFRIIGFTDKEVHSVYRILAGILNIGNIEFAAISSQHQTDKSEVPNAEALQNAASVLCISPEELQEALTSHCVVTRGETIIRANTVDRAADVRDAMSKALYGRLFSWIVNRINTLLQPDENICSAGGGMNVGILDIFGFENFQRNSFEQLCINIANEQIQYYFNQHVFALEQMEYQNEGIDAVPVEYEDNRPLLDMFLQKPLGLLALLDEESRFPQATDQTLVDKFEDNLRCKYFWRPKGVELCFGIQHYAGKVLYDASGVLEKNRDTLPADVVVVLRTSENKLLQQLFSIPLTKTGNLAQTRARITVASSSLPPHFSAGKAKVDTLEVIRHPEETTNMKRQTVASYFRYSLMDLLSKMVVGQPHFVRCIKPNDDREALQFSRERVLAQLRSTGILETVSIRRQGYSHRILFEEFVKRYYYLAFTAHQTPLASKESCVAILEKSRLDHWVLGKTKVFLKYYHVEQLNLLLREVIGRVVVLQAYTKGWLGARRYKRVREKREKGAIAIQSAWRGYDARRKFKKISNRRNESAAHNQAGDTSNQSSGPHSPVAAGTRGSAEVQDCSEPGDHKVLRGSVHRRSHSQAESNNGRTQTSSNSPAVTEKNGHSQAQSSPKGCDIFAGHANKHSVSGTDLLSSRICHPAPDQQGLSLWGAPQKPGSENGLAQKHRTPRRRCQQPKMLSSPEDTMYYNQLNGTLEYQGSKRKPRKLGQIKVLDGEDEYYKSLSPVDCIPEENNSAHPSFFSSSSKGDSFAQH
# Sequence of UniProt Q8N5S9 (whole entry, looked up): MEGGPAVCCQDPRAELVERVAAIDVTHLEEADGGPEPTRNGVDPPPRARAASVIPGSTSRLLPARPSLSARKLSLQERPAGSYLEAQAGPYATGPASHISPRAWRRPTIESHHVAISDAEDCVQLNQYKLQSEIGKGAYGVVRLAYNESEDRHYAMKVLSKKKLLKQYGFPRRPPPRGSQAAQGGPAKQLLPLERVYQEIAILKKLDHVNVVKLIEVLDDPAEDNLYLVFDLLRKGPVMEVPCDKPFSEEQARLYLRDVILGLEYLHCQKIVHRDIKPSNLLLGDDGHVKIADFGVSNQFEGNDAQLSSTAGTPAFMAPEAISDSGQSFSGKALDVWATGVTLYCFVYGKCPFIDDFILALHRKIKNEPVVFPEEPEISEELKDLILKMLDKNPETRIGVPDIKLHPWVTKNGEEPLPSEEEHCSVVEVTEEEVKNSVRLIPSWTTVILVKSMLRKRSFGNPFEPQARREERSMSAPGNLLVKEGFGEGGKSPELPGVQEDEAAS
# Sequence of UniProt Q04759 (whole entry, looked up): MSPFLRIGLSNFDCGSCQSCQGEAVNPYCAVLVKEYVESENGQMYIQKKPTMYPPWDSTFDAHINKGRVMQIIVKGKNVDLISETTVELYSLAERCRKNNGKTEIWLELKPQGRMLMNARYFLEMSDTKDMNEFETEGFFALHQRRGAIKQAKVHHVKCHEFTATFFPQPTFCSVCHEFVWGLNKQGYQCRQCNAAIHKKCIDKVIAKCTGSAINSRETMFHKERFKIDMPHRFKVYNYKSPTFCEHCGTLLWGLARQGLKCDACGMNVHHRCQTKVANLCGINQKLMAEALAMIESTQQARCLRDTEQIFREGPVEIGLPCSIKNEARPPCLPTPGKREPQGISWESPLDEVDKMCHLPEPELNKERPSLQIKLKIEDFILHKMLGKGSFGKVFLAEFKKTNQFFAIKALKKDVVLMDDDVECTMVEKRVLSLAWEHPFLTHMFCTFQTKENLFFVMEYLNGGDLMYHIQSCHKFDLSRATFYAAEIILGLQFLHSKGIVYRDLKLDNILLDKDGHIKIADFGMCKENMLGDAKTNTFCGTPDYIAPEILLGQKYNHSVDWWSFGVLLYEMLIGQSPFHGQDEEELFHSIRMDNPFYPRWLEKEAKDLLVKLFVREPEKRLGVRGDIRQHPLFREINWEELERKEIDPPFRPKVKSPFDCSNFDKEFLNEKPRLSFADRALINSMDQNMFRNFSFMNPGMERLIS
# Sequence of UniProt Q14012 (whole entry, looked up): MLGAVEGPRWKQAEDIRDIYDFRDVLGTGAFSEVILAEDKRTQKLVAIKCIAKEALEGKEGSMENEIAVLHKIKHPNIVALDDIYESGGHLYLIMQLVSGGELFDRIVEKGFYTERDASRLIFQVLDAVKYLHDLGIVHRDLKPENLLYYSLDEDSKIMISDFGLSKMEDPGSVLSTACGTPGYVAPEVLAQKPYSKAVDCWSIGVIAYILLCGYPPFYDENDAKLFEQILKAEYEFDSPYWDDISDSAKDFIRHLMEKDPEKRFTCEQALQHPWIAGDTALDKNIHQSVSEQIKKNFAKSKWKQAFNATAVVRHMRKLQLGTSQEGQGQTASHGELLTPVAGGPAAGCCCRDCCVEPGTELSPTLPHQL

# Set 1
# SMILES: CCCOc1ccc([C@@H]2[C@@H](C(=O)O)[C@H](c3ccc4c(c3)OCO4)CN2CC(=O)Nc2c(CC)cccc2CC)cc1
# Method: competition with immobilised ligand
# Tested at: 1 µM
target,assay,remaining binding
"Aurora kinase C (AURKC, Homo sapiens, UniProt Q9UQB9)",cell-free assay,94%
"DSTYK (Homo sapiens, UniProt Q6XUX3)",cell-free assay,82%
"EPHB2 (Homo sapiens, UniProt P29323)",cell-free assay,100%
"ACVR2B (Homo sapiens, UniProt Q13705)",cell-free assay,96%
"FLT3 (Homo sapiens, UniProt P36888, D835V/ITD)",cell-free assay,61%
"CDK8 (Homo sapiens, UniProt P49336)",cell-free assay,86%
"STK10 (Homo sapiens, UniProt O94804)",cell-free assay,98%
"PAK5 (Homo sapiens, UniProt Q9P286)",cell-free assay,88%
"Ribosomal protein S6 kinase alpha-6, C-terminal kinase domain (RPS6KA6, Homo sapiens, UniProt Q9UK32)",cell-free assay,76%
"Non-receptor tyrosine-protein kinase TYK2, JH2 (TYK2, Homo sapiens, UniProt P29597)",cell-free assay,81%
"MAP3K12 (Homo sapiens, UniProt Q12852)",cell-free assay,100%
"HASPIN (Homo sapiens, UniProt Q8TF76)",cell-free assay,99%
"Myosin-IIIb (MYO3B, Homo sapiens, UniProt Q8WXR4)",binding,52%
"OXSR1 (Homo sapiens, UniProt O95747)",cell-free assay,79%
"PTK2 (Homo sapiens, UniProt Q05397)",cell-free assay,88%

# Set 2
# SMILES: Cc1nc(Nc2ncc(C(=O)Nc3c(C)cccc3Cl)s2)cc(N2CCN(CCO)CC2)n1
# Action: inhibitor
target,setting,inhibition
"MAPK3 (Homo sapiens, UniProt P27361)",1 µM,< 50%
"MKNK1 (Homo sapiens, UniProt Q9BUB5)",10 µM,< 50%
"IGF1R (Homo sapiens, UniProt P08069)",10 µM,< 50%
"Ribosomal protein S6 kinase alpha-4, N-terminal kinase domain (RPS6KA4, Homo sapiens, UniProt O75676)",10 µM,< 50%

# Set 3
# SMILES: CC(C)n1cnc(-c2ccc(F)cc2)c1-c1ncc(C(=O)Nc2ccc(N3CCN(C)CC3)cc2)[nH]1
# Method: phase 2a clinical trial
# Host: patients with idiopathic pulmonary fibrosis
assay,setting,patients with treatment-emergent adverse events [%]
measured: benign prostatic hyperplasia,"60 mg once daily, Grade 3, maximum intensity",0
measured: interstitial lung disease,"60 mg once daily, Grade 2",0
measured: carbon dioxide decreased,"dose not given, Grade 3, all drug arms total",0
measured: benign prostatic hyperplasia,"60 mg once daily, Grade 1, maximum intensity",0
measured: left bundle branch block,"dose not given, Grade 3, all drug arms",0
measured: C-reactive protein increased,"30 mg once daily, Grade 5",0
measured: protein urine present,"30 mg once daily, Grade 5",0
measured: protein urine present,"60 mg once daily, Grade 2",0
measured: metabolism and nutrition disorders (SOC),"dose not given, Grade 5, all drug arms total",0
measured: first degree atrioventricular block,"60 mg once daily, Grade 4",0

# Set 4
# SMILES: CN1CCN(c2ccc3nc(-c4c(N)c5c(F)cccc5[nH]c4=O)[nH]c3c2)CC1
# Tested at: 0.5 µM
target,assay,setting,scale,remaining activity
"SRPK1 (Homo sapiens, UniProt Q96SB4)","enzyme activity, inhibitor",,reference: control,97.5%
"EPHA6 (Homo sapiens, UniProt Q9UF33)","enzyme activity, inhibitor",,reference: control,44.6%
"PAK1 (Homo sapiens, UniProt Q13153)","enzyme activity, inhibitor",,reference: control,111%
"CSNK1D (Homo sapiens, UniProt P48730)","enzyme activity, inhibitor",,reference: control,79.3%
"PAK6 (Homo sapiens, UniProt Q9NQU5)","enzyme activity, inhibitor",,reference: control,103%
"CAMKK1 (Homo sapiens, UniProt Q8N5S9)","enzyme activity, inhibitor",,reference: control,48.5%
"MUSK (Homo sapiens, UniProt O15146)","enzyme activity, inhibitor",,reference: control,63.2%
"Cyclin-dependent kinase 2, with cyclin E (CDK2, Homo sapiens, UniProt P24941)","enzyme activity, inhibitor",,reference: control,92.3%
"PRKCQ (Homo sapiens, UniProt Q04759)","enzyme activity, inhibitor",,reference: control,97.6%
"PRKCZ (Homo sapiens, UniProt Q05513)","enzyme activity, inhibitor",,reference: control,81%
"MAP3K20 (Homo sapiens, UniProt Q9NYL2)","enzyme activity, inhibitor",,reference: control,91.5%
"TYRO3 (Homo sapiens, UniProt Q06418)","enzyme activity, inhibitor",,reference: control,23.8%
"CSNK1E (Homo sapiens, UniProt P49674)","enzyme activity, inhibitor",,reference: control,94.1%
"EPHA2 (Homo sapiens, UniProt P29317)","enzyme activity, inhibitor",,reference: control,76.9%
"CLK2 (Homo sapiens, UniProt P49760)","enzyme activity, inhibitor",,reference: control,38.6%
"CAMK1 (Homo sapiens, UniProt Q14012)","enzyme activity, inhibitor",,reference: control,85.8%
"ABL2 (Homo sapiens, UniProt P42684)",kinase activity,with: ATP 10 µM,reference: untreated,24.3%
"JAK1 (Homo sapiens, UniProt P23458)","enzyme activity, inhibitor",,reference: control,92.1%
"TEC (Homo sapiens, UniProt P42680)","enzyme activity, inhibitor",,reference: control,91%
"CLK1 (Homo sapiens, UniProt P49759)","enzyme activity, inhibitor",,reference: control,67.8%
"SGK2 (Homo sapiens, UniProt Q9HBY8)","enzyme activity, inhibitor",,reference: control,89.8%
"RPS6KA3 (Homo sapiens, UniProt P51812)","enzyme activity, inhibitor",,reference: control,34.3%
"SIK2 (Homo sapiens, UniProt Q9H0K1)","enzyme activity, inhibitor",,reference: control,25.5%
